Published values collected from several papers.
Parts stem from different laboratories: compare values within a part only. Changes are numbered by the printed parent chain.

Study 1
Target: HLA class I histocompatibility antigen, A alpha chain, allele A*25:01 (Homo sapiens, UniProt P04439)
Observed: peptide-MHC binding
Molecule type: peptide
Concentration: concentration not given
| Molecule | binding |
| --- | --- |
| YSGNIVHRY | inactive |
| KVSWRWMVY | inactive |
| WTLAKPDFV | inactive |

Study 2
Target: UBE2A UBC core domain (UniProt P49459)
UniProt P49459, sequence (whole entry, looked up): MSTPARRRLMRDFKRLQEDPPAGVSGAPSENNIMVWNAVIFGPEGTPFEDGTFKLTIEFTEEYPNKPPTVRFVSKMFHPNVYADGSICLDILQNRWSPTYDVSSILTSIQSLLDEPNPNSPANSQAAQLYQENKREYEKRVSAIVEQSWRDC
Method: yeast two-hybrid
Matrix: yeast
Setting: mostly zero background
Relative to: not given
Reading: higher = stronger interaction
B1: MARCHF2 RING domain (UniProt Q9P0N8); chain RLLSTVIRALDTPSDGPFCRICHEGANGECLLSPCGCTGTLGAVHKSCLEKWLSSSNTSYCELCHTEFAVEKRPRPLTEWL
B2: RNF130 RING domain (UniProt Q86XS8); chain DKETDPDFDHCAVCIESYKQNDVVRILPCKHVFHKSCVDPWLSEHCTCPMCKLNILKALGIV
B3: RMND5B RING domain (UniProt Q96G75); chain MKCWYHSVFACPILRQQTSDSNPPIKLICGHVISRDALNKLINGGKLKCPYCPMEQNPADGK
B4: NHLRC1 RING domain (UniProt Q6VVB1); chain MREAEISLLECKVCFEKFGHRQQRRPRNLSCGHVVCLACVAALAHPRTLALECPFCRRACRGCDTSD
B5: RNF17 RING domain (UniProt Q9BXT8); chain SQPWGAAEIQCTRCGRRVSRSSGHHCELQCGHAFCELCLLMTEECTTIICPDCEVATAVNTRQR
B6: RNF11 RING domain (UniProt Q9Y3C5); chain RDGSEKKIRECVICMMDFVYGDPIRFLPCMHIYHLDCIDDWLMRSFTCPSCMEPVDAALLSS
B7: RFPL3 RING domain (UniProt O75679); chain MAALFQEASSCPVCSDYLEKPMSLECGCTVCLKCINSLQKEPHGEDLLCCCCSMVSQRNKIRP
| Molecule | lacZ reporter activity |
| --- | --- |
| AAQLLEEKLTCAICLGLYQDPVTLPCGHNFCGACIRDWWDRCGKACPECREPFPDGAELR (TRIM65 RING domain (UniProt Q6PJ69)) | 0 |
| B1 (MARCHF2 RING domain) | 0 |
| B2 (RNF130 RING domain) | 0 |
| B3 (RMND5B RING domain) | 0 |
| B4 (NHLRC1 RING domain) | 0 |
| B5 (RNF17 RING domain) | 0 |
| B6 (RNF11 RING domain) | 0 |
| SNNDLASLFECPVCFDYVLPPILQCQSGHLVCSNCRPKLTCCPTCRGPLGSIRNLA (SIAH1 RING domain (UniProt Q8IUQ4)) | 0 |
| B7 (RFPL3 RING domain) | 0 |

Study 3
Target: CCNA1, cyclin fold, Cln2 fusion (human)
Method: yeast growth competition, sequencing
Matrix: yeast
Setting: strong parent motif
Relative to: not given
Reading: higher = stronger binding
Parent: viral docking peptide; YKVKRRLVFGADD; partner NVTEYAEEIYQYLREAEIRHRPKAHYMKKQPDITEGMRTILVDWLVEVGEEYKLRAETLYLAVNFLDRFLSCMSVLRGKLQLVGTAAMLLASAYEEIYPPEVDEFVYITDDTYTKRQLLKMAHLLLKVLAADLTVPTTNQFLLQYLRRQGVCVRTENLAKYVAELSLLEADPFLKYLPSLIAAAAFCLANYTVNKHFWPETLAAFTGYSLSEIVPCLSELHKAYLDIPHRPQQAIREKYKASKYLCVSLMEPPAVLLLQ
| Variant | normalised enrichment score |
| --- | --- |
| K4H | 0.532 |
| V8P | 0.423 |
| K4Q | 1.1 |

Study 4
Target: Fragile X messenger ribonucleoprotein 1, C-terminal low-complexity region (Fmr1, Mus musculus, UniProt P35922)
Method: RNA Bind-n-Seq
Molecule type: RNA
Matrix: in vitro
Concentration: 200 nM
Setting: whole 134-nt RNA, ends assumed
Added: 150 mM KCl
Relative to: input library
Reading: higher = stronger binding
| Sequence | log2 enrichment |
| --- | --- |
| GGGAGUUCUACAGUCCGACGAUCAAGUCCUGUGCUACACAUCGUAUGUACCGAAUCGGAAAAAGGAAAAAGGAAAAAGGGAAAGUAUUAUGUUACGCCGUUCGGAUCUGCACUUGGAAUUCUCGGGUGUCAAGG | -0.844 |
| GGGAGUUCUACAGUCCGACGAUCAAGUCCUGUGCUACACAUCGUAUGUACCGAAUCGGAAAGGGGAAAGGGGAAAGGGGAAAGUAUUAUGUUACGCCGUUCGGAUCUGCACUUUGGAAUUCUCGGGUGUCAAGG | 0.171 |
| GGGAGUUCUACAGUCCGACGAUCUCCUGUGCUACACAUCGUAUGUACCGAAUCGGGAAAAAAAGGGUUUUUUUGGGAAAGGGAAAGUAUUAUGUUACGCCGUUCGGAUCUGCAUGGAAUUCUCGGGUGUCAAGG | -0.281 |
| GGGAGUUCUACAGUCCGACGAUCAGUCCUGUGCUACACAUCGUAUGUACCGAAUCGGGUUUGGGUUUGGGAAAAAAAGGGAAAGUAUUAUGUUACGCCGUUCGGAUCUGCACUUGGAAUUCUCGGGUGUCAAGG | 0.0958 |
| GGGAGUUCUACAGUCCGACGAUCAAGUCCUGUGCUACACAUCGUAUGUACCGAAUCGGAAAAGGAAAAGGGGAAAAGGGGAAAGUAUUAUGUUACGCCGUUCGGAUCUGCACUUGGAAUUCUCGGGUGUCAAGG | -0.101 |
| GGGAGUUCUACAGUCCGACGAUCGCAGGAAGUAAAAACAAAUGGAAAUGCUUCGGAUAGUGGCAGGGGUGGGGGUUGCUAAGGAAAGGGUGGGAUGGGAGUGGGUAAAGAGUGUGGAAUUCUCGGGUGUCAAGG | 0.154 |
| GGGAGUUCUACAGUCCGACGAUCUGUGCUACACAUCGUAUGUACCGAAUCGGGGUUUUUGGGGUUUUUUUGGGGAAAAAAAGGGGAAAGUAUUAUGUUACGCCGUUCGGAUCUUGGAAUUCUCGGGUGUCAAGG | 0.437 |
| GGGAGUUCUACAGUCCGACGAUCUCAAGUCCUGUGCUACACAUCGUAUGUACCGAAUCGGGGAAGGAAGGGGAAGGGGAAAGUAUUAUGUUACGCCGUUCGGAUCUGCACUUCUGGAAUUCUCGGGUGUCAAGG | 0.724 |

For quick reference, copied from above (study 1):
| Molecule | binding |
| --- | --- |
| WTLAKPDFV | inactive |
| YSGNIVHRY | inactive |
| KVSWRWMVY | inactive |
